Measured values pooled from the literature.
Several values in a cell are separate wells, animals, samples, runs or records. ± gives the spread as reported.
Chain of UniProt P68400 (whole entry, looked up): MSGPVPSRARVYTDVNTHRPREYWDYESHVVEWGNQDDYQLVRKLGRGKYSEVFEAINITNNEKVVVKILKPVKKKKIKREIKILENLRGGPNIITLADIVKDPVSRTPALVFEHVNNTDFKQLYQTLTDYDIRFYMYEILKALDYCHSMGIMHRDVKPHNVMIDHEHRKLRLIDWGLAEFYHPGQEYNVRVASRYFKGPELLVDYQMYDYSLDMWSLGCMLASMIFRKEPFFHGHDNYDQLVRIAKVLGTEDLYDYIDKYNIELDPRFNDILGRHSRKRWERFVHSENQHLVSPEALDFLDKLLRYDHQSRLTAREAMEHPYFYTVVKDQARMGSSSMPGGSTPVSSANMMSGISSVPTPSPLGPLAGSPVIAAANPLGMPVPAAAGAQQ

CC(C(=O)O)n1nc(Cn2cc3cc(OCC[18F])c(Cl)cc3n2)c2ccccc2c1=O (racemic)
brain uptake (PET; C57BL/6 mouse male; 40 min): 0.19 %ID/g

COC1CN([C@H]2CC[C@H]([C@@]3(C)Oc4c(Cl)cc(C(=O)NCc5c(SC)cc(C)[nH]c5=O)c(C)c4O3)CC2)C1
log2 fold change (RNA-seq, refers to: NPL mouse homolog; mouse, HT-1376 xenograft, whole blood; dose not given; relative to: vehicle): 0.69

C=C1CC[C@H](OCCCNC(=O)CCOCCOCCOCCOCCOCCOCCOCCOCCOCCOCCOCCOCCOCCOCCOCCOCCOCCOCCOCCOCCOCCOCCOCCOCCOCCOCCOCCOCCOCCOCCOCCOCCOCCOCCOCCOCCNC(=O)CCN2C(=O)CC(SC[C@H](NC(=O)[C@H](Cc3ccccc3)NC(=O)[C@H](CC(N)=O)NC(=O)[C@H](Cc3c[nH]cn3)NC(=O)[C@@H](NC(=O)[C@H](CC(=O)O)NC(=O)[C@H](CCC(N)=O)NC(=O)[C@H](CC(C)C)NC(=O)[C@H](CCCCN)NC(=O)[C@H](CCCCN)NC(=O)[C@H](CCCNC(=N)N)NC(=O)[C@H](CC(C)C)NC(=O)[C@H](Cc3c[nH]c4ccccc34)NC(=O)[C@H](CCC(=O)O)NC(=O)[C@@H](NC(=O)[C@H](CCCNC(=N)N)NC(=O)[C@H](CCC(=O)O)NC(=O)[C@H](CCSC)NC(=O)[C@H](CO)NC(=O)[C@H](CC(N)=O)NC(=O)[C@H](CC(C)C)NC(=O)[C@H](Cc3c[nH]cn3)NC(=O)[C@H](CCCCN)NC(=O)CNC(=O)[C@H](CC(C)C)NC(=O)[C@H](CC(N)=O)NC(=O)[C@H](Cc3c[nH]cn3)NC(=O)[C@H](CCSC)NC(=O)[C@H](CC(C)C)NC(=O)[C@H](CCC(N)=O)NC(=O)[C@@H](NC(=O)[C@H](CCC(=O)O)NC(=O)[C@H](CO)NC(=O)[C@@H](NC(=O)[C@@H](N)CO)C(C)C)[C@@H](C)CC)C(C)C)C(C)C)C(=O)O)C2=O)C/C1=C/C=C1\CCC[C@]2(C)[C@@H]([C@H](C)CCCC(C)(C)O)CC[C@@H]12 (stereo partly shown)
Tmax (male cynomolgus monkey, plasma; subcutaneous, 0.07 mg/kg, single dose): 6 h

C/C(N)=N/C(=N\S(=O)(=O)c1ccc(C(F)(F)F)cc1)N1C[C@H](c2ccccc2)C(c2ccc(Cl)cc2)=N1
Tmax (male C57BL/6 mouse, liver; oral, 10 mg/kg): 1.5 h

CCCCN1C(=O)c2cccc3c(NCCCCN4CCOCC4)ccc(c23)C1=O
fluorescence quantum yield (chloroform): 0.6

CCN(CC)CC#CCNc1ccnc2cc(Cl)ccc12
revertants per well (Salmonella typhimurium; mini-Ames test; TA1535; 250.0 µg/well, without S9): 2

O=C1C2CC3CC1CC(C(=O)N1CCN(c4ccc([N+](=O)[O-])c5ncccc45)CC1)(C3)C2
revertant fold increase (Salmonella typhimurium; Ames test; TA100; 0.05 µg/well, without S9; relative to: vehicle): 0.8

[11CH3]N1CCC(NC(=O)c2cc(-c3c(O)cc(O)cc3Oc3ccc([N+](=O)[O-])cc3)on2)CC1
standardized uptake value (healthy female Wistar rats, blood; intravenous, 2 min): 2.5 ± 0.2 g/mL

CCCCN1C(=O)c2cccc3c(NCCCCCCN4CCOCC4)ccc(c23)C1=O
Stokes shift (methanol): 94 nm

CC(C)OCCOCc1ccc(OCC(O)CN(N=O)C(C)C)cc1 (stereo not shown)
revertant fold increase (Salmonella typhimurium; Ames test; TA1535; 50 µg/plate, 30 % hamster S9; relative to: solvent control): 2.3 fold

COCC1CN(C2CCN(c3cc(OC)c(Nc4ncc(Br)c(Nc5ccc6c(c5P(C)(C)=O)OCCO6)n4)cc3C)CC2)C1
adverse events (first-in-human trial; human; oral, 150 mg once daily; any treatment-related): 83.3%

CCCC[C@H](NC(=O)COCCOCCNC(=O)CN1CCN(CC(=O)O)CCN(CC(=O)O)CC1)C(=O)N[C@H]1CC(=O)NCCCC[C@@H](C(N)=O)NC(=O)[C@H](Cc2c[nH]c3ccccc23)NC(=O)[C@H](CCCNC(=N)N)NC(=O)[C@@H](Cc2ccccc2)NC(=O)[C@H](Cc2c[nH]cn2)NC1=O [technetium-99m labelled]
tissue uptake (C57 mouse, tumor; intravenous, 0.037 MBq, 24 h): 1.33 ± 0.15 %ID/g

C=CC(=O)Nc1cccc(Cn2ncc3cnc(Nc4cnn(CCOC)c4)nc32)c1
remaining compound (mouse, CD-1, both sexes, whole blood; 5 µM, 120 min): 31.5%

N#C[C@@H]1CC(F)(F)CN1C(=O)CNC(=O)c1ccnc2c(NC(=O)CCOCCOCCOCCOCCOCCOCCNC(=O)[C@H](CCCCNC(=O)CN3CCN(CC(=O)[O-])CCN(CC(=O)[O-])CCN(CC(=O)[O-])CC3)NC(=O)CCCc3ccc(I)cc3)cccc12.[177Lu+3]
radiochemical stability (PBS; 4 h, 37 °C, 177Lu-labelled): 99.23 ± 0.5%

Cc1nn(-c2cccc(N)c2)c(=O)c2cnc(Nc3ccc(N4CCNCC4)cc3)nc12
IC50 (CSNK2A1 (Homo sapiens, UniProt P68400); enzyme activity, inhibitor): > 10 µM

O=C(Nc1cnccc1-c1ccc([18F])nc1)c1ccnc(NC(=O)C2CC2)c1
mean SUV (ex vivo gamma counting; FVB/NJ mice, both sexes, caudate nucleus; intravenous, 120 min, with: tariquidar 15 mg/kg iv): 0.082

Oc1ccc(Nc2ncnc3[nH]c(/C=C/c4ccccc4)nc23)cc1
purity (HPLC; solution; after 1 h light exposure): 99%

C=C(NC(=O)c1csc(-c2nc3c(cc2O)-c2nc(cs2)C(=O)NC(C(C)O)C(=O)NC(=C(C)OC)c2nc(cs2)C(=O)NC2c4nc(cs4)C(=O)NC(COC(=O)c4c5c6c(cccc6n4O)COC(=O)C(OC4CC(C)(O)C(N(C)C)C(C)O4)C2OC5)c2nc-3cs2)n1)C(N)=O (stereo not shown)
Tmax (female cynomolgus monkey, plasma; intravenous, 1 mg/kg, single dose, infusion): 0.11 h

CNC(=O)C1CCCN(C(=O)C2CC3CCC2N3C(=O)[C@@H]2C[C@@H](O)CN2C(=O)NCc2cccc(Cl)c2F)C1 (mixture of isomers)
remaining activity (CYP2C19 (Homo sapiens, UniProt P33261); enzyme activity, inhibitor, time-dependent inhibition; 0.0686 µM, preincubated with NADPH; relative to: negative control): 102%

CCCCN1C(=O)c2cccc3c(NCCCCCN4CCOCC4)ccc(c23)C1=O
Stokes shift (DMSO): 88 nm

C=CS(=O)(=O)c1ccc(OC)c(-c2c[nH]c3ncc(-c4cncc(C(=O)N(C)C)c4)cc23)c1
reactivity half-life (HPLC; acetonitrile/water/DMSO; 50 µM, 37 °C, DIPEA 20 eq, with: N-α-acetyl-lysine): 8 to 10 h

O=C(Nc1cnccc1-c1ccc([18F])cc1)c1ccnc(NC(=O)C2CC2)c1
SUV (FVB/NJ mice (both sexes), cortex; intravenous, dose not given, 120 min): 0.05

O=C([O-])CN1CCN(CC(=O)[O-])CCN(C(CO)C(O)CO)CCN(CC(=O)[O-])CC1.[Dy+3] (stereo not shown)
lanthanide concentration (cynomolgus monkey, pons; dose not given, day 5): 0.034 ± 0.018 nmol/g

O=C1c2sc(-c3ccc(N4CCC(F)C4)nc3F)nc2CCN1c1cccnc1 (stereo not shown)
concentration (CD1 mouse, plasma; i.v., dose not given, 0.5 h): 86.4 ng/mL and 109 ng/mL and 101 ng/mL

OCC1OC(n2cnc3c(NCc4ccc(Br)s4)ncnc32)C(O)C1O (stereo not shown)
clearance (ICR mice, male, blood; intravenous, 1 mg/kg): 0.4 ± 0.1 mL/min
